Published values from different studies.
A part holds a random share of what one study measured. “And” joins repeats or separate records; there may be more than shown.
Sequence of UniProt Q99640 (whole entry, looked up): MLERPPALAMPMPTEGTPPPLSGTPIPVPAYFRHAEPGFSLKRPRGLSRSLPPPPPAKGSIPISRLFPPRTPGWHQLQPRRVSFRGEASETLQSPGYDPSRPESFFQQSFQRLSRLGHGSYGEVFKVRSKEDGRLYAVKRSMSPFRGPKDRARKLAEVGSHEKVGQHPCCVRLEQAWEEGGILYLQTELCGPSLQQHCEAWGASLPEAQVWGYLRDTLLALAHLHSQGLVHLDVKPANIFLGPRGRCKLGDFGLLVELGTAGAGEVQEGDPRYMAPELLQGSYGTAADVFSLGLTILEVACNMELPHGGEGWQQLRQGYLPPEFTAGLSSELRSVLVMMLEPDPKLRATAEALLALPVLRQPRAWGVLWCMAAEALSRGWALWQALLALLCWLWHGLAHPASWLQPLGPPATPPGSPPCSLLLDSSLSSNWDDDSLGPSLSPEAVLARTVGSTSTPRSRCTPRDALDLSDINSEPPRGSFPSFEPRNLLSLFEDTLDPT

Series 1
Compound: CCCN1C(=O)C(O)(C(=O)O)Oc2cc(F)ccc21 (stereo not shown)
organism	test	test system	setting	how to read	inhibition
Arabidopsis thaliana	hypocotyl length	Col-0	100 µg/mL, 7 days, seed germination, dark	–	68.9%
Arabidopsis thaliana	hypocotyl length	Col-0, seedlings	12.5 µg/mL	–	22.4%
Arabidopsis thaliana	root length	Col-0, seedlings	50 µg/mL	reference: water control	65.5%
Avena fatua	fresh weight	–	150 g ai/ha, pre-emergence treatment	–	51.4% and 54.6% and 50.3%
Arabidopsis thaliana	hypocotyl length	Col-0, seedlings	100 µg/mL	–	68.9%
Arabidopsis thaliana	root length	Col-0, seedlings	6.25 µg/mL	reference: water control	22.5%
Arabidopsis thaliana	hypocotyl length	Col-0	25.0 µg/mL, 7 days, seed germination, dark	–	28.9%
Amaranthus retroflexus	fresh weight	–	150 g ai/ha, post-emergence treatment	–	66.2% and 64% and 61.6%
Arabidopsis thaliana	root length	Col-0, seedlings	25 µg/mL	reference: water control	51.1%
Arabidopsis thaliana	root length	Col-0, seedlings	50 µg/mL	–	65.5%
Arabidopsis thaliana	hypocotyl length	Col-0	12.5 µg/mL, 7 days, seed germination, dark	–	22.4%
Arabidopsis thaliana	root length	Col-0, seedlings	25 µg/mL	–	51.1%

Series 2
Compound: COCC1CC2C(CCC3C(O)CCC32)c2ccc(O)cc21 (stereo not shown)
cell line	test	setting	how to read	mRNA level ratio
SK-OV-3	microarray, refers to: MCM6	25 µM	reference: untreated	1.12
A549	DNA microarray, refers to: KIF20A	25 µM	reference: untreated cells	1.02 and 0.992 and 0.979 and 1.01
PANC-1	microarray, refers to: OLIG2	25 µM	reference: untreated	1
PANC-1	DNA microarray, refers to: GINS1	100 µM	reference: untreated cells	1.06
A549	microarray, refers to: GZMK	25 µM	reference: untreated	1
SK-OV-3	microarray, refers to: SPC25	25 µM	reference: untreated	0.931
A549	DNA microarray, refers to: GAPDH	100 µM	reference: untreated cells	0.8 and 0.785 and 0.776 and 0.787 and 0.794
PANC-1	microarray, refers to: GZMK	25 µM	reference: untreated	1
A549	DNA microarray, refers to: MCM7	25 µM	reference: untreated cells	1.14
PANC-1	DNA microarray, refers to: MCM7	100 µM	reference: untreated cells	0.811
PANC-1	microarray, refers to: GZMK	100 µM	reference: untreated	1
PANC-1	DNA microarray, refers to: GAPDH	100 µM	reference: untreated cells	0.627 and 0.63 and 0.624 and 0.608 and 0.631

Series 3
Structure (SMILES): Cc1ncsc1-c1ccc(C(CO)NC(=O)C2CC(O)CN2C(=O)C(C(C)C)n2cc(-c3ccc(COc4c(-c5c(C)c(F)cc6[nH]ncc56)c(C5CC5)cc5c(N6CC7CC6CN7)nc(OC6CCOCC6)nc45)cc3)nn2)cc1 (stereo not shown)
Method: qRT-PCR
Species: mouse, PK-59 xenograft
Medium: tumour
Notes: unit not given
test	setting	how to read	mRNA level
refers to: SPRY4	10 mg/kg, 72 h	reference: vehicle	0.26 and 0.231 and 0.2
refers to: FOSL1	intravenous, 30 mg/kg, 6 h	reference: vehicle, same time point	0.00249 and 0.00377 and 0.00239
refers to: DUSP6	10 mg/kg, 2 h	reference: vehicle	0.693 and 0.502 and 0.615
refers to: MYC	10 mg/kg, 72 h	reference: vehicle	0.713 and 0.534 and 0.659
refers to: FOSL1	30 mg/kg, 6 h	reference: vehicle	0.086 and 0.13 and 0.083 and 0.0827 and 0.0862
refers to: DUSP4	intravenous, 10 mg/kg, 72 h	reference: vehicle, same time point	0.11 and 0.0926 and 0.0863
refers to: MYC	intravenous, 10 mg/kg, 144 h	reference: vehicle, same time point	0.0753 and 0.0787 and 0.108
refers to: MYC	30 mg/kg, 6 h	reference: vehicle	0.464 and 0.436 and 0.489
refers to: SPRY4	30 mg/kg, 144 h	reference: vehicle	0.536 and 0.389

Further values, each from its own experiment
Compound	tested on	test	test system	setting	quantity	result
Cc1ccc(O)c(C)c1-c1cnc2[nH]c(-c3cnc(N4CCC5(CC4)CC(N4CCN(c6ccc(N[C@H]7CCC(=O)N(C)C7=O)cc6F)CC4)CO5)nc3)cc2c1C#N (single isomer, unassigned)	HCC1569	automated immunoblotting, refers to: CDK1 phospho-Thr14	–	24 h	IC50	75.3 nM
Cc1ccc(O)c(C)c1-c1cnc2[nH]c(-c3cnc(N4CCC(CN5CCC(c6ccc(NC7CCC(=O)NC7=O)cc6F)CC5)CC4)nc3)cc2c1C#N (stereo not shown)	–	–	female CD-1 mouse, plasma	oral, 10 mg/kg	half-life	3 h
Cc1ccc(O)c(C)c1-c1cnc2[nH]c(-c3cnc(N)nc3)cc2c1C#N	–	–	Sprague-Dawley rat, male, plasma	oral, dose not given	oral bioavailability	51.9%
Cc1ccc(O)c(C)c1-c1cnc2[nH]c(-c3cnc(N4CCC5(CC4)CC(N4CCN(c6ccc7c(c6)C(=O)N(C6CCC(=O)NC6=O)C7=O)CC4)CO5)nc3)cc2c1C#N (mixture of isomers)	PKMYT1 (Homo sapiens, UniProt Q99640)	binding, HTRF	–	1000 nM	inhibition	100%
